Measurements pooled from the literature.
Each numbered part is a random draw from the data of one study; scales do not carry over between parts. Substitutions count along the parent as printed.

Block 1 — technique: aptamer microarray, sandwich; molecule type: DNA with 2'F-ANA; sample: in vitro; concentration: 200 nM; with: Cy3 exosite-II aptamer, 400 nM; direction: higher = stronger binding; oligonucleotide: GGTTGGTGTGGTTGG
Target: Prothrombin, mature alpha-thrombin (F2, Homo sapiens, UniProt P00734)
Notes: whole 15-mer aptamer, many near background
Modification | mean fluorescence intensity
2'F-ANA at 4 5 6 9 12 13 | 88.9 a.u.
2'F-ANA at 1 3 4 5 7 9 11 12 14 | 54.1 a.u.
2'F-ANA at 1 2 15 | 207 a.u.
2'F-ANA at 1 5 7 9 12 | 132 a.u.
2'F-ANA at 1 7 8 12 13 14 15 | 92.8 a.u.
2'F-ANA at 1 2 3 4 5 7 9 10 11 | 53.6 a.u.
2'F-ANA at 1 2 3 6 8 10 15 | 65.7 a.u.
2'F-ANA at 1 3 5 6 9 10 13 14 | 49.9 a.u.
2'F-ANA at 3 6 12 14 15 | 535 a.u.
2'F-ANA at 1 5 8 9 10 13 14 15 | 60 a.u.
2'F-ANA at 1 5 6 7 10 11 12 13 | 49.5 a.u.
2'F-ANA at 3 7 9 11 13 | 891 a.u.
2'F-ANA at 2 6 7 8 11 12 14 15 | 189 a.u.
2'F-ANA at 1 4 5 8 11 | 51.1 a.u.
2'F-ANA at 3 4 6 9 10 | 264 a.u.

Block 2 — target: CCND2, cyclin fold, Cln2 fusion (human); technique: yeast growth competition, sequencing; sample: yeast; notes: weak parent motif; relative to: not given; direction: higher = stronger binding
Starting sequence: E2F1 docking peptide (human); PPVKRRLDLETDH; partner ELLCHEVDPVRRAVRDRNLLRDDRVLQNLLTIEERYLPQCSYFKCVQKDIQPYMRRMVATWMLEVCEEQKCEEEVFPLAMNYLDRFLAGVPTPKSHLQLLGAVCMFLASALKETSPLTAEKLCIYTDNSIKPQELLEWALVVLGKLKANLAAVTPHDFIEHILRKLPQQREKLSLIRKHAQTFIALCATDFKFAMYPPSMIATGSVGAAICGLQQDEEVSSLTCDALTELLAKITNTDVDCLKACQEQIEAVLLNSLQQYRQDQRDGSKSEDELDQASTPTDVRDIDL
Variant | normalised enrichment score
E10R | 0.113
R6P | -0.135
T11A | 0.327
D8E | -0.221
R5W | 0.262
P1F | 0.553
H13A | 0.0821
D8M | 0.29
D8C | 0.17
V3I | 0.297
T11E | 0.116
L7A | 0.113
V3C | 0.468
V3E | 0.192

Block 3 — technique: DHFR PCA, deep sequencing; sample: yeast; with: (+)-ABA 58 µM; relative to: wild-type fitted maximum; direction: higher = stronger binding
Target: ABI1, truncated, D143A, DHFR fusion (Arabidopsis thaliana)
Notes: methotrexate growth selection, single substitutions
Starting sequence: PYL1, truncated, DHFR fusion (Arabidopsis thaliana); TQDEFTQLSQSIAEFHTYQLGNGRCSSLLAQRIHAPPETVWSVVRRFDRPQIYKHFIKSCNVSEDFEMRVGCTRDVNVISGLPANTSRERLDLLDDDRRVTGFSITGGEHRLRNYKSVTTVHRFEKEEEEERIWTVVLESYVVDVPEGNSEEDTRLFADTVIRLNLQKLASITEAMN
Variant | relative binding score [%]
A175T | 86.7
E151I | 80.8
V78H | 13.8
L20M | 87.9
P37I | 80.6
H55I | 82.8
R113A | 89.1
R132E | 106
E64K | 85.8

Other studies, line by line
Substance | target | assay | system | conditions | how to read | endpoint | result
PhoQ, residues 284 288 289 292 302 303 SLANIV | PhoP, residues 12 14 15 18 19 LHTVL (Escherichia coli, UniProt P23836) | Sort-seq, item: YFP reporter | E. coli | PhoQ-PhoP variant library, with: 10 µM Mg2+ | relative to: high Mg2+ state, higher = stronger signaling | fold induction | 4.34

Repeated from above (block 1):
Modification | mean fluorescence intensity
2'F-ANA at 1 2 15 | 207 a.u.
2'F-ANA at 1 5 7 9 12 | 132 a.u.
